{"data": "Measured values of several laboratories", "VIPR2": "Vasoactive intestinal polypeptide receptor 2 (VIPR2, Homo sapiens, UniProt P41587)", "note": "Protocols differ between the studies behind these lines. Numbers after ± are the reported error.", "chain of UniProt P41587 (whole entry, looked up)": "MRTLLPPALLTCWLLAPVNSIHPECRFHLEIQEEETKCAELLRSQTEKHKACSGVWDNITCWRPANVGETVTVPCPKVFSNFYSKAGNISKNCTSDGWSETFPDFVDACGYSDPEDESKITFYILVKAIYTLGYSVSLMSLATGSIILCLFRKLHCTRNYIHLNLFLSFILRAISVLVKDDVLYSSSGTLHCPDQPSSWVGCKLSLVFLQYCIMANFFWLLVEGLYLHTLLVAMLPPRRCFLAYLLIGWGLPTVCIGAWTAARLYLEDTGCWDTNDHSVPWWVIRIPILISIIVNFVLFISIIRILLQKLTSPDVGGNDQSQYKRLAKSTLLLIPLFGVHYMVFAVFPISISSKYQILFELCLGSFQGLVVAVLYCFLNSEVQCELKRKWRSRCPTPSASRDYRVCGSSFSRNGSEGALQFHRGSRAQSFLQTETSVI", "chain of UniProt P21554 (whole entry, unmodified, looked up)": "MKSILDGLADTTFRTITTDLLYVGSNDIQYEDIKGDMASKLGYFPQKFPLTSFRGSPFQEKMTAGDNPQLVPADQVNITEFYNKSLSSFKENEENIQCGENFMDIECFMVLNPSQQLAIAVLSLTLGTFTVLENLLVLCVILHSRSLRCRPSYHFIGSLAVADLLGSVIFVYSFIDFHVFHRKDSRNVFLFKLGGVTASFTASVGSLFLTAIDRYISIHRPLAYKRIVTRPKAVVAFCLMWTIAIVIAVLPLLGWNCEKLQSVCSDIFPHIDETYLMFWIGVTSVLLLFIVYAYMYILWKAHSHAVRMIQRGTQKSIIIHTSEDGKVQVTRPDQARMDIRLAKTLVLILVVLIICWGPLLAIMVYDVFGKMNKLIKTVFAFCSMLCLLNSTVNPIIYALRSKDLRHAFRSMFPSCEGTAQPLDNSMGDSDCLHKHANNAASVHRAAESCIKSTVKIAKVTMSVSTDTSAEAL", "chain of UniProt P41143 (whole entry, unmodified, looked up)": "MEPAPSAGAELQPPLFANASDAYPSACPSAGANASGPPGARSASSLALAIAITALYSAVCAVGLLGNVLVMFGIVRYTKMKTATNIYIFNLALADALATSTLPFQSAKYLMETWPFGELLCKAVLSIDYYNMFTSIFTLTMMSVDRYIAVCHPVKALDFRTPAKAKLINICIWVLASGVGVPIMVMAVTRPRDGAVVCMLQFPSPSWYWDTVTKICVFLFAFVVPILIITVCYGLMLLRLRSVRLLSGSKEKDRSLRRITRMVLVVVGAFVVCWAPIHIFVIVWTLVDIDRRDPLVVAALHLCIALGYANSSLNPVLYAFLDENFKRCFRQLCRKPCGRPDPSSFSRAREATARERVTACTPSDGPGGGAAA", "chain of UniProt P35348 (whole entry, looked up)": "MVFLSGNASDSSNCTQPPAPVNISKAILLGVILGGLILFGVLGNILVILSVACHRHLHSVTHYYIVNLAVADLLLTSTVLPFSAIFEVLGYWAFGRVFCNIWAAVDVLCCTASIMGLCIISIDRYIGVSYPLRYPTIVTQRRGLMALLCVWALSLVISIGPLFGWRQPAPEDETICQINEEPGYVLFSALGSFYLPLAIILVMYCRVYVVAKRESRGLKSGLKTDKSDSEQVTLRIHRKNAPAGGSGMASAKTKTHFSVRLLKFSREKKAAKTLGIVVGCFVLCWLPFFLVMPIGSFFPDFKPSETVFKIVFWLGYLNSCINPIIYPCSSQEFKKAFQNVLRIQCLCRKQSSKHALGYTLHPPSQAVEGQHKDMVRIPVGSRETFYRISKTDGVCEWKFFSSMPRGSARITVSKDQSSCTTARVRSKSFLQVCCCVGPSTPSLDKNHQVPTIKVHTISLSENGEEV", "chain of UniProt P00784 (whole entry, looked up)": "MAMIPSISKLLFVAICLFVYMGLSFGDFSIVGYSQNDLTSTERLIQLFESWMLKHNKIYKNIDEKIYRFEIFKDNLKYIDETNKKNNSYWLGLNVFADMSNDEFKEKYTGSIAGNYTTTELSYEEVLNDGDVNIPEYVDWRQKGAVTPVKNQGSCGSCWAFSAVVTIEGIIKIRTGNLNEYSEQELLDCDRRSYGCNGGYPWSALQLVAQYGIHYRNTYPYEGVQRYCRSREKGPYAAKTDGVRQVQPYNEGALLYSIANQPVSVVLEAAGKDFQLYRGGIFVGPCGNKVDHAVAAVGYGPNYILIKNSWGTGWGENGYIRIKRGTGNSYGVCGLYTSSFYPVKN", "chain of UniProt Q9UPC5 (whole entry, looked up)": "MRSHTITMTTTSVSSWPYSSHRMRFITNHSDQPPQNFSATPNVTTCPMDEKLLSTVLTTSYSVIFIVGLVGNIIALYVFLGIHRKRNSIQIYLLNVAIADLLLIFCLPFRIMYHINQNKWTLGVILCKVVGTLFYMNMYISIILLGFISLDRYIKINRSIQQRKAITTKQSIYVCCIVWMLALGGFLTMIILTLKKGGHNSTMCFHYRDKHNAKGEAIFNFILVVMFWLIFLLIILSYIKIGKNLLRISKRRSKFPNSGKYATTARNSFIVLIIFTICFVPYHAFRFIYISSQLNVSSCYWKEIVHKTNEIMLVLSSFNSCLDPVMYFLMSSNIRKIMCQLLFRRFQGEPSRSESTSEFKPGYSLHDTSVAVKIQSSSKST", "chain of UniProt O43613 (whole entry, looked up)": "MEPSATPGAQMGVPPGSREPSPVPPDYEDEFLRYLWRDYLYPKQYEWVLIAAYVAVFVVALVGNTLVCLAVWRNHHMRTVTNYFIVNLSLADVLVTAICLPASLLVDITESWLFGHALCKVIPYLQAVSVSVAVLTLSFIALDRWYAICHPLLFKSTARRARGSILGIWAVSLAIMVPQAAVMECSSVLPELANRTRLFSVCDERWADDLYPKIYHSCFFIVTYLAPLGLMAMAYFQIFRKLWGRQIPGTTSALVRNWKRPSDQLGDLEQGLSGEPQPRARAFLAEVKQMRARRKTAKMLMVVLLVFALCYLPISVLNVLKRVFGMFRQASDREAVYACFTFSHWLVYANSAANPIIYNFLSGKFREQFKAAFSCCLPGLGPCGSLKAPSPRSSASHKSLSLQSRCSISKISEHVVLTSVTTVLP", "chain of UniProt P35367 (whole entry, looked up)": "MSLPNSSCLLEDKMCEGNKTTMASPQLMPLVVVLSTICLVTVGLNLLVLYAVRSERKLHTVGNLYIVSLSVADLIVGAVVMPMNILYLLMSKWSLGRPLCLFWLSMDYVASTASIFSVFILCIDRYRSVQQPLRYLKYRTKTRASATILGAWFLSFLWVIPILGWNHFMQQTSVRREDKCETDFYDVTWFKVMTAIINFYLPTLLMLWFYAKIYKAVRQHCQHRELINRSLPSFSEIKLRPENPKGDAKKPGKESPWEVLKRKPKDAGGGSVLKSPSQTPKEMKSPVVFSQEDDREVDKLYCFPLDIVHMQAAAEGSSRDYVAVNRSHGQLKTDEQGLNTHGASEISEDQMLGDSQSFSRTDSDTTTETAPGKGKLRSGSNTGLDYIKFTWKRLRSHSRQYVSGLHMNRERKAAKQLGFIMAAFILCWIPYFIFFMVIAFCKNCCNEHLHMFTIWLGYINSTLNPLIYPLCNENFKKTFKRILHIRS"}
{"Compound": "CC(C)CC(C(=O)N1CC2(CC1C#N)C(=O)Nc1ccccc12)N(C)C(=O)c1cc2c(F)cc(F)c(F)c2[nH]1 (stereo not shown)", "target": "Papain (Carica papaya, UniProt P00784)", "test": "enzyme activity, inhibitor", "endpoint": "IC50", "value": "> 100 µM"}
{"Compound": "Cc1ccc2c(C(C[N+](=O)[O-])c3cccs3)c(-c3ccccc3)[nH]c2c1 (stereo not shown)", "target": "CNR1 (Homo sapiens, UniProt P21554, Y397F)", "test": "β-arrestin recruitment, agonist, luciferase", "endpoint": "EC50", "value": "190 nM"}
{"Compound": "CSCC[C@H](NC(=O)[C@H](CCC(N)=O)NC(=O)[C@H](CCCCN)NC(=O)[C@H](CCCNC(=N)N)NC(=O)[C@H](Cc1ccc(O)cc1)NC(=O)[C@H](CCCNC(=N)N)NC(=O)[C@H](CO)NC(=O)[C@H](Cc1ccc(O)cc1)NC(=O)[C@H](CO)NC(=O)[C@H](CC(=O)O)NC(=O)[C@@H](NC(=O)[C@@H](N)Cc1ccccc1)[C@@H](C)O)C(=O)N[C@@H](C)C(=O)N[C@H](C(=O)N[C@@H](CCCCN)C(=O)N[C@@H](CCCCn1cc(C[C@H](NC(=O)CNC(=O)[C@H](CO)NC(=O)[C@H](CCCNC(=N)N)NC(=O)[C@H](CO)NC(=O)[C@H](CC(C)C)NC(=O)[C@H](CC(C)C)NC(=O)CNC(=O)[C@H](C)NC(=O)[C@H](CC(C)C)NC(=O)[C@H](CCCNC(=N)N)NC(=O)[C@H](Cc2c[nH]cn2)NC(=O)[C@@H](NC(=O)[C@@H](N)C(C)C)[C@@H](C)O)C(=O)N[C@H](C(=O)N[C@H](C(=O)N[C@@H](CCCCN)C(=O)N[C@@H](CC(N)=O)C(=O)N[C@@H](CC(N)=O)C(=O)N[C@@H](Cc2ccccc2)C(=O)N[C@H](C(=O)N2CCC[C@H]2C(=O)N[C@H](C(=O)N[C@@H](CC(N)=O)C(=O)N[C@H](C(=O)NCC(=O)N[C@@H](CO)C(=O)N[C@@H](CCCCN)C(=O)N[C@@H](C)C(=O)N[C@@H](Cc2ccccc2)C(N)=O)C(C)C)[C@@H](C)O)C(C)C)C(C)C)C(C)C)nn1)C(=O)N[C@@H](Cc1ccc(O)cc1)C(=O)N[C@@H](CC(C)C)C(=O)N[C@@H](C)C(=O)N[C@@H](C)C(=O)N[C@H](C(=O)N[C@@H](CC(C)C)C(=O)NCC(=O)N[C@@H](CCCCN)C(=O)N[C@@H](CCCNC(=N)N)C(=O)N[C@@H](Cc1ccc(O)cc1)C(=O)N[C@@H](CCCCN)C(=O)N[C@@H](CCC(N)=O)C(=O)N[C@@H](CCCNC(=N)N)C(=O)N[C@H](C(=O)N[C@@H](CCCCN)C(=O)N[C@@H](CC(N)=O)C(=O)N[C@@H](CCCCN)C(N)=O)C(C)C)C(C)C)C(C)C", "target": "VIPR2", "test": "cAMP accumulation, antagonist", "test system": "COS-7 transfected", "conditions": "second of 2 determinations, together with: PACAP-38", "endpoint": "Kb", "value": "646 nM"}
{"Compound": "O=C(Cc1ccc(OCc2ccccc2)cc1)NC1(C(=O)O)CCN(C(=O)c2ccc(-c3cccc(Cl)c3)cc2)CC1", "target": "Probable G-protein coupled receptor 34 (Homo sapiens, UniProt Q9UPC5)", "test": "β-arrestin recruitment, agonist", "endpoint": "EC50", "value": "> 10000 nM"}
{"Compound": "CCN(CC)C(=O)c1ccc(C(c2cccc(O)c2)N2CC(C)N(Cc3ccccc3)CC2C)cc1 (stereo not shown)", "target": "OPRD1 (Homo sapiens, UniProt P41143, W284A)", "endpoint": "Ki", "value": "0.00112 ± 0.00059 µM"}
{"Compound": "COc1ccccc1C(C[N+](=O)[O-])c1c(-c2ccccc2)[nH]c2ccccc12 (stereo not shown)", "target": "CNR1 (Homo sapiens, UniProt P21554)", "test": "G protein activation, agonist, BRET", "endpoint": "EC50", "value": "190 nM"}
{"Compound": "CN(C)[C@H](CNC(=O)/C=C/c1cccc2ccccc12)Cc1ccc(O)cc1", "target": "HCRTR1 (Homo sapiens, UniProt O43613)", "endpoint": "Ki", "value": "> 50 µM"}
{"Compound": "CCN(CC)C(=O)[C@@H]1C=C2c3cccc4c3c(cn4C(=O)c3ccco3)C[C@H]2N(C)C1", "target": "HRH1 (Homo sapiens, UniProt P35367)", "test": "ligand displacement, radioligand", "endpoint": "Ki", "value": "> 10 µM"}
{"Compound": "CSCC[C@H](NC(=O)[C@H](CCC(N)=O)NC(=O)[C@H](CCCCN)NC(=O)[C@H](CCCNC(=N)N)NC(=O)[C@H](Cc1ccc(O)cc1)NC(=O)[C@H](CCCNC(=N)N)NC(=O)[C@H](CO)NC(=O)[C@H](Cc1ccc(O)cc1)NC(=O)[C@H](CO)NC(=O)[C@H](CC(=O)O)NC(=O)[C@@H](NC(=O)[C@@H](N)Cc1ccccc1)[C@@H](C)O)C(=O)N[C@@H](C)C(=O)N[C@H](C(=O)N[C@@H](CCCCN)C(=O)N[C@@H](CCCCN)C(=O)N[C@@H](Cc1ccc(O)cc1)C(=O)N[C@@H](CC(C)C)C(=O)N[C@@H](C)C(=O)N[C@@H](C)C(=O)N[C@H](C(=O)N[C@@H](CC(C)C)C(=O)NCC(=O)N[C@@H](CCCCN)C(=O)N[C@@H](CCCNC(=N)N)C(=O)N[C@@H](Cc1ccc(O)cc1)C(=O)N[C@@H](CCCCN)C(=O)N[C@@H](CCC(N)=O)C(=O)N[C@@H](CCCCn1cc(C[C@H](NC(=O)CNC(=O)[C@H](CO)NC(=O)[C@H](CCCNC(=N)N)NC(=O)[C@H](CO)NC(=O)[C@H](CC(C)C)NC(=O)[C@H](CC(C)C)NC(=O)CNC(=O)[C@H](C)NC(=O)[C@H](CC(C)C)NC(=O)[C@H](CCCNC(=N)N)NC(=O)[C@H](Cc2c[nH]cn2)NC(=O)[C@@H](NC(=O)[C@@H](N)C(C)C)[C@@H](C)O)C(=O)N[C@H](C(=O)N[C@H](C(=O)N[C@@H](CCCCN)C(=O)N[C@@H](CC(N)=O)C(=O)N[C@@H](CC(N)=O)C(=O)N[C@@H](Cc2ccccc2)C(=O)N[C@H](C(=O)N2CCC[C@H]2C(=O)N[C@H](C(=O)N[C@@H](CC(N)=O)C(=O)N[C@H](C(=O)NCC(=O)N[C@@H](CO)C(=O)N[C@@H](CCCCN)C(=O)N[C@@H](C)C(=O)N[C@@H](Cc2ccccc2)C(N)=O)C(C)C)[C@@H](C)O)C(C)C)C(C)C)C(C)C)nn1)C(=O)N[C@H](C(=O)N[C@@H](CCCCN)C(=O)N[C@@H](CC(N)=O)C(=O)N[C@@H](CCCCN)C(N)=O)C(C)C)C(C)C)C(C)C", "target": "VIPR2", "test": "cAMP accumulation, antagonist", "conditions": "together with: PACAP-27", "endpoint": "Kb", "value": "631 nM"}
{"Compound": "C[C@@H](Cc1ccsc1)NC(=O)NC[C@H](Cc1ccc(O)cc1)N(C)C", "target": "ADRA1A (Homo sapiens, UniProt P35348)", "test": "cell-free assay", "endpoint": "Ki", "value": "6 µM"}
{"note": "A few entries again:"}
{"Compound": "CSCC[C@H](NC(=O)[C@H](CCC(N)=O)NC(=O)[C@H](CCCCN)NC(=O)[C@H](CCCNC(=N)N)NC(=O)[C@H](Cc1ccc(O)cc1)NC(=O)[C@H](CCCNC(=N)N)NC(=O)[C@H](CO)NC(=O)[C@H](Cc1ccc(O)cc1)NC(=O)[C@H](CO)NC(=O)[C@H](CC(=O)O)NC(=O)[C@@H](NC(=O)[C@@H](N)Cc1ccccc1)[C@@H](C)O)C(=O)N[C@@H](C)C(=O)N[C@H](C(=O)N[C@@H](CCCCN)C(=O)N[C@@H](CCCCN)C(=O)N[C@@H](Cc1ccc(O)cc1)C(=O)N[C@@H](CC(C)C)C(=O)N[C@@H](C)C(=O)N[C@@H](C)C(=O)N[C@H](C(=O)N[C@@H](CC(C)C)C(=O)NCC(=O)N[C@@H](CCCCN)C(=O)N[C@@H](CCCNC(=N)N)C(=O)N[C@@H](Cc1ccc(O)cc1)C(=O)N[C@@H](CCCCN)C(=O)N[C@@H](CCC(N)=O)C(=O)N[C@@H](CCCCn1cc(C[C@H](NC(=O)CNC(=O)[C@H](CO)NC(=O)[C@H](CCCNC(=N)N)NC(=O)[C@H](CO)NC(=O)[C@H](CC(C)C)NC(=O)[C@H](CC(C)C)NC(=O)CNC(=O)[C@H](C)NC(=O)[C@H](CC(C)C)NC(=O)[C@H](CCCNC(=N)N)NC(=O)[C@H](Cc2c[nH]cn2)NC(=O)[C@@H](NC(=O)[C@@H](N)C(C)C)[C@@H](C)O)C(=O)N[C@H](C(=O)N[C@H](C(=O)N[C@@H](CCCCN)C(=O)N[C@@H](CC(N)=O)C(=O)N[C@@H](CC(N)=O)C(=O)N[C@@H](Cc2ccccc2)C(=O)N[C@H](C(=O)N2CCC[C@H]2C(=O)N[C@H](C(=O)N[C@@H](CC(N)=O)C(=O)N[C@H](C(=O)NCC(=O)N[C@@H](CO)C(=O)N[C@@H](CCCCN)C(=O)N[C@@H](C)C(=O)N[C@@H](Cc2ccccc2)C(N)=O)C(C)C)[C@@H](C)O)C(C)C)C(C)C)C(C)C)nn1)C(=O)N[C@H](C(=O)N[C@@H](CCCCN)C(=O)N[C@@H](CC(N)=O)C(=O)N[C@@H](CCCCN)C(N)=O)C(C)C)C(C)C)C(C)C", "target": "VIPR2", "test": "cAMP accumulation, antagonist", "conditions": "together with: PACAP-27", "endpoint": "Kb", "value": "631 nM"}
